Results from different studies.
Several values in a cell are separate wells, animals, samples, runs or records. ± gives the spread as reported. Values after ≈ are worked out from the molar mass of the structure shown.
Chain of UniProt P03956 (whole entry, looked up): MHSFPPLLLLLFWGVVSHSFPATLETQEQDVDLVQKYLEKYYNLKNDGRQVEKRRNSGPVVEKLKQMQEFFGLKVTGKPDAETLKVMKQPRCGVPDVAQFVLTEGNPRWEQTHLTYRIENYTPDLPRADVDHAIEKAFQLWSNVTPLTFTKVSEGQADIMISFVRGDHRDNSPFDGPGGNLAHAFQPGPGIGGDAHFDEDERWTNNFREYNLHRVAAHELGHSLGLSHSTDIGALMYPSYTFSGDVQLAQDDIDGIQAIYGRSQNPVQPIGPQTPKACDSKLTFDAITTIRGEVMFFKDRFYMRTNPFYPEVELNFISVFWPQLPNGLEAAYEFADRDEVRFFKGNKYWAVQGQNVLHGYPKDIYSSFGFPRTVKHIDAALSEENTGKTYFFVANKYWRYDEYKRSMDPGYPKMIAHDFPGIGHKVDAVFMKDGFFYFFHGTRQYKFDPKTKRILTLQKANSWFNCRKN

`CC(C)[C@H]1NC(=O)CNC(=O)[C@H](CO)NC(=O)[C@@H](Cc2c(-c3ccc(-c4ccc5ccccc5c4)cc3)[nH]c3ccccc23)NC(=O)[C@@H](CO)NC(=O)[C@@H](C(C)C)NC(=O)[C@H](Cc2ccccc2)NC1=O` has an MIC90 of 31.1 µM (Mycobacterium marinum).
`CCc1nn(C)c2nc(-c3ccc(C(=O)O)cc3)nc(NCc3ccccc3)c12` gave a parasite number of 30.1% and 25.8% and 37% and 29% (Cryptosporidium parvum; HCT-8; 9 x EC90, 48 h; relative to: DMSO control).
For `O=S(=O)(c1ccc(-c2ccc3ncnc(Nc4ccc(OCc5cccc(F)c5)c(Cl)c4)c3c2)cc1)N1CCOCC1`, the inhibition was 0% (Trypanosoma cruzi; intracellular amastigote growth, β-galactosidase CPRG; 3T3, Tulahuen, β-galactosidase-expressing; 10 µM, 96 h).
`CCCC(C)Oc1cccc(NC(=O)c2cccnc2)c1` (centres unmarked) gave an MIC50 of 8 µg/mL (≈ 28.1 µM) (Saccharomyces cerevisiae; Δpdr5).
With `NCCO.O=C(O)C(Cl)Cl` the inhibition was 0% (Solanum nigrum; herbicidal activity; 15 mg/mL, 21 days, post-emergence greenhouse).
`CCC(C)CCC(=O)N[C@H](CCN)C(=O)N[C@@H](CCN)C(=O)N[C@@H](CCN)C(=O)N[C@@H](CC(C)C)C(=O)N[C@H](Cc1ccccc1)C(=O)N[C@@H](CCN)C(=O)N[C@@H](CCN)C(=O)N[C@@H](CC(C)C)C(N)=O` (some centres unmarked) gave an MBC of 128 µM (Acinetobacter calcoaceticus; BHI agar spot plating; 24 h, 37 °C).
`CC(C)C[C@H](NC(=O)[C@@H](N)CO)C(=O)N[C@@H](Cc1c[nH]c2ccccc12)C(=O)N[C@@H](CCC(=O)O)C(=O)N[C@@H](CC(N)=O)C(=O)N[C@@H](Cc1ccccc1)C(=O)N[C@@H](CCCCN)C(=O)N[C@@H](CC(N)=O)C(=O)N[C@@H](C)C(=O)NCC(=O)N[C@@H](CCCCN)C(=O)N[C@@H](CCCCN)C(N)=O`: “geometric mean MIC” 256 µM (Gram-negative bacteria).
`CCCCCCCCCC(=O)NCCCC[C@H](NC(=O)CCCCCCCCC)C(=O)N[C@@H](CCCCNC(=O)CCCCCCCCC)C(=O)NCC(=O)NCC(=O)NCC(=O)N[C@@H](CS)C(=O)N[C@@H](CCCNC(=N)N)C(=O)N[C@@H](CCCCN)C(=O)N1CCC[C@H]1C(=O)N[C@@H](CS)C(=O)N[C@@H](CCCNC(=N)N)C(=O)N[C@@H](CCCCN)C(=O)N1CCC[C@H]1C(N)=O`: “geometric mean MIC” 28.5 µM (Candida; twelve fungal strains).
`Cc1cc(C(=O)Nc2nc3cccc(C)c3n2[C@H]2CCCCN(C(=O)/C=C/CN(C)C)C2)ccn1` has a survival of 80.8% and 80.1% and 86.3% and 80.2% and 101% and 77.5% (Trypanosoma brucei brucei; 2T1 wild type; 0.01029 µM).
With `COc1ccccc1-c1n[nH]c2nc(NC3CCN(C(=O)Cc4ccc(F)cc4F)CC3)ncc12` the relative abundance was 0.82 (bead binding, competition bead pull-down, measured: LINJ.05.0090; Leishmania donovani axenic amastigote extract; 10 µM; relative to: vehicle).
`CC(C)[C@H]1NC(=O)[C@H](Cc2ccccc2)NC(=O)[C@@H](C(C)C)NC(=O)[C@@H](C)NC(=O)[C@H](CO)NC(=O)[C@@H](Cc2c(-c3ccccc3-c3ccccc3)[nH]c3ccccc23)NC(=O)[C@@H](CO)NC1=O` has an MIC90 of greater than 100 µM (Mycobacterium marinum).
Under “mRNA fold change”, `FC(F)(F)c1cccc(CNc2nc(NC3CCN(Cc4ccccc4)CC3)c3nc[nH]c3n2)c1` is recorded as 1.48 (Cryptococcus neoformans; RNA-seq, measured: PIK1 (CNAG_07744); 48 µg/mL, 3 h; relative to: untreated).
For `O=C1NC2(CC2)COc2ncc(F)cc2[C@H]2COCCN2c2ccn3ncc1c3n2`, “organ-to-body weight ratio” read 0.358 ± 0.025% (Sprague-Dawley rat, female, heart; oral, 2.5 mg/kg/day, 4 weeks dosing, end of recovery).
With `CC[C@H](C)[C@H](NC(=O)[C@H](CCCCN)NC(=O)[C@H](CCCCN)NC(=O)[C@H](Cc1ccccc1)NC(=O)[C@H](Cc1ccccc1)NC(=O)[C@H](CCCCN)NC(=O)[C@H](CCCCN)NC(=O)[C@H](Cc1ccccc1)NC(=O)[C@H](CCCNC(=N)N)NC(=O)[C@@H](N)CCCCN)C(=O)N[C@@H](CCCCN)C(=O)N[C@@H](CCCCN)C(=O)N[C@@H](CO)C(=O)N[C@H](C(=O)N[C@@H](CCCCN)C(=O)N[C@@H](CCCCN)C(=O)N[C@@H](CCCNC(=N)N)C(=O)N[C@H](C(=O)N[C@@H](CCCCN)C(=O)N[C@@H](CCCCN)C(=O)N[C@@H](CC(C)C)C(=O)N[C@@H](Cc1ccccc1)C(=O)N[C@@H](CCCCN)C(=O)N[C@@H](CCCCN)C(=O)N1CCC[C@H]1C(=O)N[C@@H](CCCNC(=N)N)C(=O)N[C@H](C(=O)N[C@H](C(=O)N1CCC[C@H]1C(=O)N[C@H](C(=O)N[C@@H](CO)C(=O)N[C@H](C(=O)N1CCC[C@H]1C(=O)N[C@@H](Cc1ccccc1)C(=O)O)[C@@H](C)CC)[C@@H](C)CC)[C@@H](C)CC)C(C)C)C(C)C)C(C)C` the MBC was 16 µg/mL (Escherichia coli; E23 clinical isolate; 20 h).
With `CN(C)c1nc(NCc2cccc3ccccc23)c(/N=N/c2ccc(Cl)cc2)c(N(C)C)n1` the mortality was 73.3 ± 5.8% (Ostrinia furnacalis; leaf dipping; 200 mg/L, 96 h).
The EC50 of `Fc1cccc(COc2ccc(Nc3ncnc4ccc(-c5ccccc5)cc34)cc2Cl)c1` is reported as 1800 nM (Trypanosoma cruzi; intracellular amastigote growth, β-galactosidase CPRG; 3T3, Tulahuen, β-galactosidase-expressing; 96 h).
The inhibition of `CCOC(=O)C1(Cc2ccc(C)cc2)Oc2cc(F)ccc2N(Cc2ccc(C)cc2)C1=O` (centres unmarked) is reported as 66 ± 1.63% (Setaria viridis; fresh weight, greenhouse postemergence; postemergence, 150 g ai/ha, 21 days).
`CS(C)(=O)=Nc1ccc(-c2ccc(-c3nc4cc(O[C@@H]5CO[C@H]6[C@@H]5OC[C@H]6O)[nH]c4cc3F)cc2)cc1` has an inhibition of 71% (MMP1 (Homo sapiens, UniProt P03956); enzyme activity, inhibitor; 10 µM).
`[O-][N+]1=C(Cc2ccccc2)C2=NCCCN2c2ccccc21` gave an MIC90 of 16 µg/mL (Clostridioides difficile; microbial growth).
For `CN(C)[C@H]1C[C@@]23CC[C@@]4(O2)C(=CC[C@]2(C)[C@@H](c5ccc6ccncc6c5)CC[C@H]24)C=C3[C@@H](O)[C@@H]1O`, the inhibition was -2.4% (CDK2 (Homo sapiens, UniProt P24941); ATP probe labelling, inhibitor, KiNativ profiling; 0.1 µM).
`CC[C@H](C)[C@@H]1NC(=O)[C@H](CO)NC(=O)[C@H](CCCCN)NC(=O)[C@@H]2CSSC[C@@H](C(=O)N[C@@H](Cc3ccc(O)cc3)C(N)=O)NC(=O)[C@H](CCCCN)NC(=O)[C@@H]3CSSC[C@H](NC(=O)[C@H](CCCNC(=N)N)NC(=O)[C@H](CC(C)C)NC(=O)[C@H](CC(=O)O)NC(=O)[C@H](CC(=O)O)NC(=O)[C@H](CCC(=O)O)NC(=O)[C@H](CC(N)=O)NC(=O)[C@H](Cc4c[nH]c5ccccc45)NC(=O)[C@@H]4CCCN4C(=O)CNC(=O)[C@H](CC(N)=O)NC(=O)[C@@H](NC(=O)CNC(=O)[C@H](Cc4ccccc4)NC(=O)CN)CSSC[C@H](NC(=O)[C@H](Cc4ccc(O)cc4)NC(=O)CNC(=O)CNC(=O)[C@H](CCCCN)NC(=O)[C@H](Cc4ccc(O)cc4)NC(=O)CNC(=O)[C@H](CCCCN)NC1=O)C(=O)N[C@@H](C)C(=O)N[C@@H](CCCCN)C(=O)NCC(=O)NCC(=O)N[C@@H](Cc1ccccc1)C(=O)N[C@@H](C(C)C)C(=O)N3)C(=O)N[C@@H](Cc1c[nH]cn1)C(=O)N[C@@H](CC(N)=O)C(=O)N[C@@H](Cc1c[nH]cn1)C(=O)N2` has an MBC of 0.25 µM (Streptococcus pneumoniae; BS-442; 24 h).
`CCCCC(CC)COC(=O)CC(C(=O)OCC(CC)CCCC)S(=O)(=O)O.CCCSc1ccc2[nH]c(NC(=O)OC)nc2c1` (centres unmarked): “cells with visible microtubules” 0.03 ± 0.07% (Cryptococcus neoformans; microscopy; GFP-β-tubulin expressing; 1.25 µM, 6 h).
`C#Cc1ccc(C[C@@H]2NC(=O)CSCCNC(=O)[C@H](Cc3ccccc3)N(C)C(=O)[C@H](CC(C)C)NC(=O)[C@H](Cc3cccc4ccccc34)NC(=O)[C@H](CC(C)C)NC(=O)[C@H](C(C)C)NC(=O)[C@@H]3CCCN3C(=O)[C@H](C(C)C)NC2=O)cc1` has an EC50/IC50 ratio of 44.4 (HIV-1; viral replication; MT4; relative to: cell EC50 over protease IC50).
Under “MIC fold change”, `CC[C@H](C)CCCCC(=O)N[C@@H](CCN)C(=O)N[C@H](C(=O)N[C@@H](CCN)C(=O)N[C@H]1CCNC(=O)[C@H]([C@@H](C)O)NC(=O)[C@H](CCN)NC(=O)[C@H](CCN)NC(=O)[C@H](CC(C)C)NC(=O)[C@@H](CC(C)C)NC(=O)[C@H](CCN)NC1=O)[C@@H](C)O` is recorded as 2.21 (Escherichia coli; daily serial passaging; ATCC 8739; highest sub-MIC, 43 days; relative to: initial MIC).
For `C[N+]1=C2C(c3ccc([N+](=O)[O-])cc3)=[N+]([O-])c3ccccc3N2CCC1`, the MIC50 was 0.25 µg/mL (Clostridioides difficile; microbial growth).
The MIC90 of `CC(C)[C@H]1NC(=O)[C@H](Cc2c[nH]c3ccccc23)NC(=O)[C@@H](C(C)C)NC(=O)[C@@H](C)NC(=O)[C@H](CO)NC(=O)[C@@H](Cc2c(-c3ccc(-c4ccc5ccccc5c4)cc3)[nH]c3ccccc23)NC(=O)[C@@H](CO)NC1=O` is reported as 49.1 µM (Mycobacterium marinum).
`O=c1n(CCNCCOS(=O)(=O)c2ccccc2)c(=O)n(S(=O)(=O)c2ccccc2)c(=O)n1S(=O)(=O)c1ccccc1` has an MLC of 8 ± 2 µg/mL (Proteus mirabilis; broth microdilution).
`Cc1cc(F)ccc1-c1ccc2c(c1)c(CN(C)C)nn2C` — result for cytopathic effect: “no effect” (Rhinovirus A16; viral replication; concentration not given).
For `CN(C)c1nc(NCc2ccc(F)cc2)c(/N=N/c2ccc(Cl)cc2)c(N(C)C)n1`, the mortality was 55.3 ± 5.8% (Ostrinia furnacalis; leaf dipping; 50 mg/L, 96 h).
`CCOC(=O)C1(Cc2c(F)cccc2F)Oc2cc(F)ccc2N(Cc2c(F)cccc2F)C1=O` (centres unmarked) gave an inhibition of 43.7 ± 2.01% (Setaria viridis; fresh weight, greenhouse postemergence; postemergence, 150 g ai/ha, 21 days).
With `CN(C)c1nc(NCc2ccc(Oc3ccccc3)cc2)c(/N=N/c2ccc(Cl)cc2)c(N(C)C)n1` the mortality was 83.3 ± 5.8% (Ostrinia furnacalis; leaf dipping; 200 mg/L, 96 h).
The MIC90 of `[O-][N+]1=C(c2ccsc2)C2=NCCCN2c2ccccc21` is reported as 2 µg/mL (Clostridioides difficile; microbial growth).

For quick reference, copied from above:
For `C[N+]1=C2C(c3ccc([N+](=O)[O-])cc3)=[N+]([O-])c3ccccc3N2CCC1`, the MIC50 was 0.25 µg/mL (Clostridioides difficile; microbial growth).
The MIC90 of `CC(C)[C@H]1NC(=O)[C@H](Cc2c[nH]c3ccccc23)NC(=O)[C@@H](C(C)C)NC(=O)[C@@H](C)NC(=O)[C@H](CO)NC(=O)[C@@H](Cc2c(-c3ccc(-c4ccc5ccccc5c4)cc3)[nH]c3ccccc23)NC(=O)[C@@H](CO)NC1=O` is reported as 49.1 µM (Mycobacterium marinum).
`O=c1n(CCNCCOS(=O)(=O)c2ccccc2)c(=O)n(S(=O)(=O)c2ccccc2)c(=O)n1S(=O)(=O)c1ccccc1` has an MLC of 8 ± 2 µg/mL (Proteus mirabilis; broth microdilution).
